Assay results from different studies.
Numbered parts are unrelated; each lists some results of a single study.

Set 1
Target: Interferon regulatory factor 3, full length, phosphomimetic (IRF3, Homo sapiens, UniProt Q14653, residues 1-427, S386D/S396D/S398D/S402D/T404D/S405D)
Technique: protein-binding microarray
Form: double-stranded DNA, one strand shown
Medium: in vitro
Concentration: 2540 nM top
Setting: 60-bp whole probe
With: salmon DNA 0.4 mg/ml
Reference: random background probes
Reading: higher = stronger binding
All sequences stand within: GCCTAGCAC … GTCTTGATTCGCTTGACGCTGCTG
Construct (chain): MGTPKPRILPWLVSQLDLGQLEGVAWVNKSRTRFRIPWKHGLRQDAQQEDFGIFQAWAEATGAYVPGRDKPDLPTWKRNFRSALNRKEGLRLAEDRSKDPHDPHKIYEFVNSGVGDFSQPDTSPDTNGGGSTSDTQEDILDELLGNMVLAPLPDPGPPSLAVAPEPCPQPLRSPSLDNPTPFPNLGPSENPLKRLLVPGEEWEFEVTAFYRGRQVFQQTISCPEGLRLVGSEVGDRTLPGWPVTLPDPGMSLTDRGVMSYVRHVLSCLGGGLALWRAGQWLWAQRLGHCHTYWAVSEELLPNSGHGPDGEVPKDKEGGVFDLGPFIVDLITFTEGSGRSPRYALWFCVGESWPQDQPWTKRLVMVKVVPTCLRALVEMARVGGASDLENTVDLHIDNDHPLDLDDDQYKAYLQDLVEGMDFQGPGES
Oligonucleotide | fitted relative affinity [z-score]
TTCTTAATGCTTCTGGACCAGTGCTAG | 0.525
TCAATTTTCTCTTATTCACTGTGCTAG | 1.38
ACGTCTTCATGTTTTTTTCTGTGCTAG | 0.377
TTAGGACTGCTACTGCTTAAGTGCTAG | -0.644
GACGGTCTCGGCTTCGGGACGTGCTAG | -0.116
TTAGATTTCGGGTATCGATAAGTGCTA | 1.62
GTCGAACTGAGTATCGAGACGTGCTAG | 0.429
GACAATTCCAGTTTCGAGACGTGCTAG | 3.46
GACGGTATCCTGCTCCTGACGTGCTAG | 1.38
GACGATTACAGTTTCGAGACGTGCTAG | 2.2
TCACCTTCCCCTCTAGGACTGTGCTAG | 1.45
GACGTTTTCGACTATCGGGACGTGCTA | 2.23
CAATATTTGCAACATCCCAATGTGCTA | 0.749
TCAAGTTTCATTCCTGAACTGTGCTAG | 3.41
GACGGTTTCGGTATCGGAACGTGCTAG | 8.31
GACGGTCTGGACTTTCGGGACGTGCTA | 0.0838
GACGGACTGCTTCTCCTGAGGTGCTAG | -0.489
GACGATCTCGGTTTCGAGACGTGCTAG | 2.68
TCATTTCTATATTTGCTACTGTGCTAG | 2.57
GACGGTTTCGGGAATGGGGACGTGCTA | 3.75
TCTTATATACCTGTATATCTGTGCTAG | 0.481
TTAGAAATCAGACTGGATTAGTGCTAG | -0.187
GACGGTCTCCTTCGCCTGACGTGCTAG | 0.407
TCATTTATGGTTTTTTTACTGTGCTAG | 1.27
TTAGGCCTGCTACTGCTTTAGTGCTAG | -1.06

Set 2
Target: PABPC1L2, full length, GST fusion (mouse, UniProt A0ABA7IW68)
Technique: RNAcompete
Form: RNA
Medium: in vitro
Concentration: 20 nM
Setting: 7-mer, probes averaged, single round
Reference: mean of 7-mers
Reading: higher = stronger binding
Target sequence (chain): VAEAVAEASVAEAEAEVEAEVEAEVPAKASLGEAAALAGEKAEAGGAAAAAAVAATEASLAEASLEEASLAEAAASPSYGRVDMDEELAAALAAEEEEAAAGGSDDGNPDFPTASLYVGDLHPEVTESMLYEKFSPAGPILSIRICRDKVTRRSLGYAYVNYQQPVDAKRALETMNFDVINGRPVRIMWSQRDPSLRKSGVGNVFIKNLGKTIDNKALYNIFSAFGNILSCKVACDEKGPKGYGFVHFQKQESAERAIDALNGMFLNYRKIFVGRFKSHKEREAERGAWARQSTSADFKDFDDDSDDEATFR
Oligonucleotide | 7-mer Z-score
GCAAAAU | 1.9
UAGCUCC | -0.378
GUAUUAC | -0.306
UCACUCG | -0.26
AUGUUCG | -0.467
AAUGGGC | 0.568
CGAUCCU | -0.38
CCUGGAA | -0.0899
UGAGCGU | -0.293
ACGUUUU | -0.393
AAAUUUC | 0.78
GUCACAC | -0.0899
AUCGGUG | 0.119
UUCUUGU | -0.431
UGCACCG | -0.135
AAGCCUC | -0.262
CUCCCUG | -0.393
CGUGACA | -0.0971
UUCACAA | -0.0156
GGUCCGG | -0.0826
AACGAUG | 0.196
GGUUACC | -0.0609
GUGCCAA | 0.0696

Set 3
Target: RNA binding protein fox-1 homolog 2, RRM domain, GST-SBP tag (RBFOX2, Homo sapiens, UniProt O43251-10, residues 100-194)
Technique: RNA Bind-n-Seq
Form: RNA
Medium: in vitro
Concentration: 365 nM
Setting: natural RNA segment, single round, ends assumed
Reference: no-protein control
Reading: higher = stronger binding
Residues (chain): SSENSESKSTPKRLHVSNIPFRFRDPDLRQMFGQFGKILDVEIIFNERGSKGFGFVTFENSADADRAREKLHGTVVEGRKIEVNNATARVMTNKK
Oligonucleotide | RBNS enrichment (R)
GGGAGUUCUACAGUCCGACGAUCAGCUGGGAGGGCUCUUCUGGGCGUCCGGGCAGCUGCAGCUGAGAGGACUUUCACACCAUAAGGAGAUUUCUGUUUUUCUUUUUGGCUGUUAAUGCUUGUCUAUAACAUUGUGGAAUUCUCGGGUGCCAA | 0.502
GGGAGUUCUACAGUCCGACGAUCUGUUUUUCCUCUCCUUUUGAGAAUUUUCUUUUGUAAAAGAAAAAUAUUUUUUAAACCGAAAUCUGUGGAUGAAAUAGAAGCUGGAGCCCUCCUCUUGGAAUAUUCAGCCUUGGAAUUCUCGGGUGCCAA | 0.398
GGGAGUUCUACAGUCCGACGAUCGGAGAUGAGUGUUGAGGCUGACGACCUCCCAGAGGCAAUCUCUGGAUCUGGAACUUUGGGCAUCAUCGGAGGACCGGCUCUGAGCACGCCUCCGCCUCAGCGCACGCCUCUGGAAUUCUCGGGUGCCAA | 0.241
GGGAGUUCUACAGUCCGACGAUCUAACCUUAGUUAGAGCCUACCUUUUGCAGUUUCUAAAUUGCUAUUAUAGUGUACAGUUCAAUUAGUAUAUGGGUUUUUUUUUCCAGGUGUUUUAUUUUUAUCCACUGUUUUGGAAUUCUCGGGUGCCAA | 0.503
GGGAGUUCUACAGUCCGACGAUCGACUCUGGUCUUGGCUAUGCUGAAGACUUUUUUAAAAAAUGGUUUUCAGGGAACCGUGAGGAUCUGGCAACAUGGCUCUGCUUGCAAUAUCCACUGAGCACUGUAAUACAUGGAAUUCUCGGGUGCCAA | 0.698
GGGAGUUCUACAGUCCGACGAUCUGGGCUCAAAAAAAGAAAGCCGCCAAAGACUCUUAUCCUUAUUGGUGCCCCAUCAUUGGCCACCCCAGCCAUAGGUGUGUGCUGUUGGUGGGAAAUGGUCUCCUUCCUCAUGGAAUUCUCGGGUGCCAA | 0.278
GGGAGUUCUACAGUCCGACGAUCUCAGGGCGGCCCCGUGCAGGAGCACCAGCUCACCCUCAGGCAUCUCGGACUGGAGGGCCAGCAGAAGGUCAGCAACUUACUCUUAAAACGAUUGUUUCGGAUCAUAUUGAUGGAAUUCUCGGGUGCCAA | 0.276
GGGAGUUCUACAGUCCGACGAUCCACUGAGAGUCAGGGCAUGGUGCUGCGGGGGAGGGCUCUUUUCUAUAUUUAUUUGAUAGCGAUAAGUCUCCGAAGGGAGUGGAAAUGCAGUCAGCCUGGGCCCUUAGCCCUGGAAUUCUCGGGUGCCAA | 0.522
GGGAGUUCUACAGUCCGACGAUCUACCUGUGAGGCUGACACCUGUUGCAGACUAUGGAGUGGUGAGAUUUGGGAAAGUUGGGCUAUAUGUUUGCAGGGACUUAAAAAGGUAGGUUCAGAACAGUAUUCUCAGUUGGAAUUCUCGGGUGCCAA | 0.993
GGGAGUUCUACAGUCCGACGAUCGCAAGUGGGACCUUGCUGGGCAUUAUAUGCCCUGUGGGGGUUUCAGAGACCCUGAAAGAGGAGGGAGGACCCGCCUCCUUGUCUGCACAACUGCAUGCACUUCUCUCCCCUGGAAUUCUCGGGUGCCAA | 1.59
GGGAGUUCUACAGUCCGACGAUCGUUUGGGCUUGAAGUUACAUUAAAGUGAAGUUAUUUGAAAGAAAGAAAACCUCAUCAUUUCUAAGGAUGACUUAAUUACUGUGCCUUUUCCUUUCUUUUUACACAUCCUAUGGAAUUCUCGGGUGCCAA | 0.402
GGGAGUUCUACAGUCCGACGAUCCUGAGCCAUGUGUGCCCCUGCGGGAGGACCCAUUCAUGCCAGAAAGCUGGUAACUCCCUCCCAGCAUCCCUGCGGAAGGAGUCAGUUUCUGAGAGUGUGACUUUUCAAGGUGGAAUUCUCGGGUGCCAA | 0.652

Set 4
Target: Ras GTPase-activating protein-binding protein 1, C-terminal RGG region (G3BP1, Homo sapiens, UniProt Q13283)
Sequence of UniProt Q13283 (whole entry, looked up): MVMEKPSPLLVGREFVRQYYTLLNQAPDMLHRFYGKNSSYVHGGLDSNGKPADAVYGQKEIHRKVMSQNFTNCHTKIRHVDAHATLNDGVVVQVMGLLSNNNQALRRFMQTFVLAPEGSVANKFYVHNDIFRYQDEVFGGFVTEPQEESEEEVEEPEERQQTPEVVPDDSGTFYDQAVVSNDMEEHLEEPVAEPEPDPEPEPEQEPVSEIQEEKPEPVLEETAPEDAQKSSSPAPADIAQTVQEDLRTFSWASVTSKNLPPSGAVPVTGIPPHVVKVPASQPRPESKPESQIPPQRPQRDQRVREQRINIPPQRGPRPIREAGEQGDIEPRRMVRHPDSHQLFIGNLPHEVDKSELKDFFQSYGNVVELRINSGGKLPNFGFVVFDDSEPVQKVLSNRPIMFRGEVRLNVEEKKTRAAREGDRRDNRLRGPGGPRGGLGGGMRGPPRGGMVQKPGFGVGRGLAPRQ
Technique: RNA Bind-n-Seq
Form: RNA
Medium: in vitro
Concentration: 1 µM
Setting: whole 134-nt RNA, ends assumed
With: 150 mM KCl
Reference: input library
Reading: higher = stronger binding
Oligonucleotide | log2 enrichment
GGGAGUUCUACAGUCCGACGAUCAGUCCUGUGCUACACAUCGUAUGUACCGAAUCGGGUUUUUUUGGGUUUGGGUUUGGGAAAGUAUUAUGUUACGCCGUUCGGAUCUGCACUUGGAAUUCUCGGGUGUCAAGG | 1.15
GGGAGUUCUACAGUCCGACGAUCUGAAGACUAUGAGACUGCUCUAUCAGGAAAGGAAGCCCUUUCGGCUGCGCUGCGCUCACAAAACCUCACCAAGAGUACAGAGAACCACAGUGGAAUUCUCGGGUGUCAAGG | -0.123
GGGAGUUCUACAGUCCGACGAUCAGUCCUGUGCUACACAUCGUAUGUACCGAAUCGGGUGGGUUUUUUUGGGAAAAAGGGAAAGUAUUAUGUUACGCCGUUCGGAUCUGCACUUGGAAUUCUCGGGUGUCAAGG | -0.382
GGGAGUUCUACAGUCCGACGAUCGCAGGAAGUAAAAACAAAUGGAAAUGCUUUGGAUAGUGGCAGGGGUGGGGGUUGCUAAGGAAAGGGUGGGAUGGGAGUGGGUAAAGAGUUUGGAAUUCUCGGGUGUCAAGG | 1.68
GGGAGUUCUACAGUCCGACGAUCUUCUGAGAAGGUUGCGCAGCAGCUGUGCCCGGCAGUCUAGAGGCGCAGAAGAGGAAGCCAUCGCCUGGCCCCGGCUCUCUGGACCUUGUCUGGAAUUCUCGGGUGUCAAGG | -1.71
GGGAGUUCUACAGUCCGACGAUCUGCGCCAACCUAGGCUUUCUUCUUCCUCUCCUCUUUAUAGGCGGAGUCGAUCUCCCAAAAGGAGAAGGUAGGCCUUCAGUCAUUUGUGAUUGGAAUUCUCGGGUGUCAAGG | -0.528
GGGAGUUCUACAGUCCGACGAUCCAAGUCCUGUGCUACACAUCGUAUGUACCGAAUCGGGGAAAGGGAAAGGAAAGGGAAAGUAUUAUGUUACGCCGUUCGGAUCUGCACUUCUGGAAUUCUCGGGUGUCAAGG | -1.15
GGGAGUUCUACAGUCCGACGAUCACCAUGCAGGUGGGCAUCUUUGGGAAGUGGGGCAAGGGGGGGAUAGAGAGGGGGGUAACACUUUGGGAACAGGUGGUCCCAGGUCGUUUCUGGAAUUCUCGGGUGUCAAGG | 2.19
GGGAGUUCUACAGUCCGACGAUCCACAGACAACACGCACCCACACAGACACAGAGGGAAGGGGUUGGGAUGGGGACAGGGUGCACAGCAGGGCGGUGUAGGACCCCAGCCCCUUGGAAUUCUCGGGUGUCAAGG | -0.717
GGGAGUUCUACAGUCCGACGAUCCUGUGCUACACAUCGUAUGUACCGAAUCGGGGCCCCCCCGGGCCCCCCCGGGCCCCCCCGGGAAAGUAUUAUGUUACGCCGUUCGGAUCUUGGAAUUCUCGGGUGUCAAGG | -2.32
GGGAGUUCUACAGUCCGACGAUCGCAGGAAGUAAAAACAAAUGGAAAUGCUUCGGAUGGUGGCAGGGGUGGGGGUUGCUAAGGAAAGGGUGGGAUGGGAGUGGGUAAAGAGUUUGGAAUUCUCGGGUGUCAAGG | 1.79
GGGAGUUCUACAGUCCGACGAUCUCCUGUGCUACACAUCGUAUGUACCGAAUCGGGGAAAAAGGGAAAAAGGGAAAAAGGGGAAAGUAUUAUGUUACGCCGUUCGGAUCUGCAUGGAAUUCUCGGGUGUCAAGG | -0.269
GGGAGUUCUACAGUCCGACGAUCAAGUCCUGUGCUACACAUCGUAUGUACCGAAUCGGGAAAAAAAGGGAAAGGGUGGGAAAGUAUUAUGUUACGCCGUUCGGAUCUGCACUUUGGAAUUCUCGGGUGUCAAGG | 1.1
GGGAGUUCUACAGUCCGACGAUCUAACUUUAGAGGAGGAUCUGAUGGGUAUGGCAGUGGACGUGGAUUUGGGGAUGGCUAUAAUGGGUAUGGAGGAGGACCUGGAGGUGGCAAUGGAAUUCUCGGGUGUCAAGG | 1.32

A few entries again (set 1):
Oligonucleotide | fitted relative affinity [z-score]
GACGTTTTCGACTATCGGGACGTGCTA | 2.23
TTAGGACTGCTACTGCTTAAGTGCTAG | -0.644
TCATTTCTATATTTGCTACTGTGCTAG | 2.57
GACGATTACAGTTTCGAGACGTGCTAG | 2.2
TTCTTAATGCTTCTGGACCAGTGCTAG | 0.525
GACGGTATCCTGCTCCTGACGTGCTAG | 1.38
CAATATTTGCAACATCCCAATGTGCTA | 0.749
TTAGGCCTGCTACTGCTTTAGTGCTAG | -1.06
GACAATTCCAGTTTCGAGACGTGCTAG | 3.46
GACGGACTGCTTCTCCTGAGGTGCTAG | -0.489
GACGGTCTGGACTTTCGGGACGTGCTA | 0.0838
